Measured values pooled from the literature.
A part holds a random share of what one study measured. Several values in a cell are separate wells, animals, samples, runs or records.
Chain of UniProt P34969 (whole entry, looked up): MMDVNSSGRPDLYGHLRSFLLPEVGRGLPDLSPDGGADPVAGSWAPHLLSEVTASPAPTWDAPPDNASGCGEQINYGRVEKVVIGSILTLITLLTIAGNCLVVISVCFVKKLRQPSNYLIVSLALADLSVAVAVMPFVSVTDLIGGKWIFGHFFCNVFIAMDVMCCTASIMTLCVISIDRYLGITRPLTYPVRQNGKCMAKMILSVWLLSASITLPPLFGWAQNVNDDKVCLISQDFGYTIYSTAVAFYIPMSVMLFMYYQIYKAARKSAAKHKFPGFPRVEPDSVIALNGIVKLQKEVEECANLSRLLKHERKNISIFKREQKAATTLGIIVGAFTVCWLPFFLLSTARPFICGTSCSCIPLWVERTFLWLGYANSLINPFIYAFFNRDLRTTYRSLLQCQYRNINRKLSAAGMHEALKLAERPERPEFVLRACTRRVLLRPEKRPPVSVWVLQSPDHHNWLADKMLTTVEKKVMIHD
Chain of UniProt P51955 (whole entry, looked up): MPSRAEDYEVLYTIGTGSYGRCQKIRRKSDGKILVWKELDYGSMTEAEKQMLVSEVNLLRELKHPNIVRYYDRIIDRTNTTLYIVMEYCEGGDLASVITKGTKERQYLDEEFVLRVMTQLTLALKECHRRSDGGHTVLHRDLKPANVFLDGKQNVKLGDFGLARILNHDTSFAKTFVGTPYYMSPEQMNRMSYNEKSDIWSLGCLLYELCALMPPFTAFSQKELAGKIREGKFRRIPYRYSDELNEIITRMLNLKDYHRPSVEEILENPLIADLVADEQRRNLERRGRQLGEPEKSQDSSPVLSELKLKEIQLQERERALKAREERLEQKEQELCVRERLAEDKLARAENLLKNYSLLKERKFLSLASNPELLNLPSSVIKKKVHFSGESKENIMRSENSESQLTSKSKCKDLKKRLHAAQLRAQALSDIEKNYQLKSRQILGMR
Chain of UniProt P25100 (whole entry, looked up): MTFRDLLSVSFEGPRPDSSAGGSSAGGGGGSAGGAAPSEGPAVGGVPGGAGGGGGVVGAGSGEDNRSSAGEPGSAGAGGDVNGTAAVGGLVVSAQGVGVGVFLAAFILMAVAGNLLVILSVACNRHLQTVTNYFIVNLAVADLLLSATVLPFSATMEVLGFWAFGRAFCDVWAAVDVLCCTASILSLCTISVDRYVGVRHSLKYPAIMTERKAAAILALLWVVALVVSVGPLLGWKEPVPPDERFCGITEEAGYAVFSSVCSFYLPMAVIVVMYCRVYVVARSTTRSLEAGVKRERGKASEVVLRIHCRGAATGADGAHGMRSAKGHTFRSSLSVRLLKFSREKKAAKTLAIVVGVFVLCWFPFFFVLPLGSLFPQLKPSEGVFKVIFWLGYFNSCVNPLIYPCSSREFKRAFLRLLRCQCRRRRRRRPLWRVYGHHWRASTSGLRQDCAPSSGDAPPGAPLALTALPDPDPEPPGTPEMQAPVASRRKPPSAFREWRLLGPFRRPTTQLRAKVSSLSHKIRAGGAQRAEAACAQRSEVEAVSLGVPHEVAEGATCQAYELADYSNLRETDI
Chain of UniProt P46098 (whole entry, looked up): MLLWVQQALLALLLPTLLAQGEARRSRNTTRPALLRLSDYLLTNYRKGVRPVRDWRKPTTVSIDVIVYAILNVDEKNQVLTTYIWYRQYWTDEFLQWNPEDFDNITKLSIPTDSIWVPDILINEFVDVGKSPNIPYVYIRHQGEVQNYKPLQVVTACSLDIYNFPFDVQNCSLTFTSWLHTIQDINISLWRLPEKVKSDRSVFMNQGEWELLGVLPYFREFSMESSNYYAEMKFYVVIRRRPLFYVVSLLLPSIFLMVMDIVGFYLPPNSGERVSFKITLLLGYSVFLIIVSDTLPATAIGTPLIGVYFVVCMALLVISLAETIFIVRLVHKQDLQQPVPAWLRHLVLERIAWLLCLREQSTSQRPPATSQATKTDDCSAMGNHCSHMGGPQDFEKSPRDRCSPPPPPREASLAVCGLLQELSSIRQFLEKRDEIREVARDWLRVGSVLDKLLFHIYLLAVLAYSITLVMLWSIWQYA
Chain of UniProt P35367 (whole entry, looked up): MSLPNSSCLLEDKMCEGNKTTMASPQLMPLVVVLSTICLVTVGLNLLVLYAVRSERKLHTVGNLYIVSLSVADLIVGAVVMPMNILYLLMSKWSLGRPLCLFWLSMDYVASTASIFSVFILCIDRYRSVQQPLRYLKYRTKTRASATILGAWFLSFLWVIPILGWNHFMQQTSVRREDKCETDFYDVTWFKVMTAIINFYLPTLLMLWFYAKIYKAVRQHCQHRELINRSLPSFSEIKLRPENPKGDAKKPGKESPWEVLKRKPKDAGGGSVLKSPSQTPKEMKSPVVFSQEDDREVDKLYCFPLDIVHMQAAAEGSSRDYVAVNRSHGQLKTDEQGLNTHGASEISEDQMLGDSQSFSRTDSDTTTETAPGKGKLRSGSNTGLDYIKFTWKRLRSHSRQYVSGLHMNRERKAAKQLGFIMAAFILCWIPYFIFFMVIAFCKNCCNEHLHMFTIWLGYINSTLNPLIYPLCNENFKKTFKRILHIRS

Sample 1
Cell line: mouse MPNST tumor cells
Method: high-content immunofluorescence imaging
Item: nuclear SOX9
Concentration: 10 µM
Time: 12 h
Setting: mean of 2 replicates
Reference: DMSO control
Reading: higher = more nuclear SOX9
Measurement: nuclear SOX9 intensity
C[C@H](N[C@@H](CCc1ccccc1)C(=O)O)C(=O)N1CCC[C@H]1C(=O)O: 92 % of DMSO and 100 % of DMSO
Nc1nc(=O)c2c([nH]1)NC[C@@H](CNc1ccc(C(=O)N[C@@H](CCC(=O)O)C(=O)O)cc1)N2C=O: 96.8 % of DMSO
CCCCCCCCCCCCCCCc1cccc(OCC(=O)NCCO)c1: 96 % of DMSO
O=C1c2cc3c(cc2OC2CCCN12)OCCO3 (centres unmarked): 94.4 % of DMSO

Sample 2
Compound: CCCCN(CCCC)C(=O)CN1C[C@H](c2cc(OC)c3c(c2)OCO3)[C@@H](C(=O)O)[C@@H]1CC(C)(C)CCC
Effect on: binding
Method: radioligand binding
Concentration: 10 µM
Measurement: inhibition
5-hydroxytryptamine receptor 7 (HTR7, Homo sapiens, UniProt P34969): -2.24%
Beta-3 adrenergic receptor (ADRB3, Homo sapiens, UniProt P13945): 2.71%
Muscarinic acetylcholine receptor M2 (CHRM2, Homo sapiens, UniProt P08172): -1.89%
Histamine H4 receptor (HRH4, Homo sapiens, UniProt Q9H3N8): -0.606%
Muscarinic acetylcholine receptor M4 (CHRM4, Homo sapiens, UniProt P08173): 8.5%
Alpha-1D adrenergic receptor (ADRA1D, Homo sapiens, UniProt P25100): -11.7%
Alpha-1B adrenergic receptor (ADRA1B, Homo sapiens, UniProt P35368): -7.9%
Alpha-2B adrenergic receptor (ADRA2B, Homo sapiens, UniProt P18089): 9.73%
D(1A) dopamine receptor (DRD1, Homo sapiens, UniProt P21728): 4.66%
5-hydroxytryptamine receptor 3A (HTR3A, Homo sapiens, UniProt P46098): 14.7%
Histamine H1 receptor (HRH1, Homo sapiens, UniProt P35367): 53.6%
Histamine H2 receptor (HRH2, Homo sapiens, UniProt P25021): 24.3%
5-hydroxytryptamine receptor 5A (HTR5A, Homo sapiens, UniProt P47898): -5.07%
Alpha-2C adrenergic receptor (ADRA2C, Homo sapiens, UniProt P18825): -18.4%

Sample 3
SMILES: CC(C)n1cnc(-c2ccc(F)cc2)c1-c1ncc(C(=O)Nc2ccc(N3CCN(C)CC3)cc2)[nH]1
Method: phase 2a trial
Measurement: patients with TEAE
idiopathic pulmonary fibrosis patients; oral, 30 mg once daily, LDL increased, grade 4: 0%
patients with idiopathic pulmonary fibrosis; dose not given, nervous system disorders SOC, grade 5, all arms: 0%
idiopathic pulmonary fibrosis patients; oral, 30 mg once daily, CK-MB increased, grade 1: 0%

Sample 4
Compound: COc1ccc2[nH]c3c4[nH]c5ccc(OC)cc5c4c4c(c3c2c1)C(=O)NC4=O
Effect on: binding
Concentration: 1 µM
Measurement: remaining binding
Serine/threonine-protein kinase/endoribonuclease IRE1 (ERN1, Homo sapiens, UniProt O75460): 93%
Serine/threonine-protein kinase Nek2 (NEK2, Homo sapiens, UniProt P51955); competition with immobilised ligand: 78%
MAP kinase-interacting serine/threonine-protein kinase 2 (MKNK2, Homo sapiens, UniProt Q9HBH9); competition with immobilised ligand: 54%
Mitogen-activated protein kinase kinase kinase 3 (MAP3K3, Homo sapiens, UniProt Q99759); competition with immobilised ligand: 59%

Sample 5
Target: DNA polymerase theta, ATPase domain (POLQ, Homo sapiens, UniProt O75417)
Chain of UniProt O75417 (whole entry, unmodified, looked up): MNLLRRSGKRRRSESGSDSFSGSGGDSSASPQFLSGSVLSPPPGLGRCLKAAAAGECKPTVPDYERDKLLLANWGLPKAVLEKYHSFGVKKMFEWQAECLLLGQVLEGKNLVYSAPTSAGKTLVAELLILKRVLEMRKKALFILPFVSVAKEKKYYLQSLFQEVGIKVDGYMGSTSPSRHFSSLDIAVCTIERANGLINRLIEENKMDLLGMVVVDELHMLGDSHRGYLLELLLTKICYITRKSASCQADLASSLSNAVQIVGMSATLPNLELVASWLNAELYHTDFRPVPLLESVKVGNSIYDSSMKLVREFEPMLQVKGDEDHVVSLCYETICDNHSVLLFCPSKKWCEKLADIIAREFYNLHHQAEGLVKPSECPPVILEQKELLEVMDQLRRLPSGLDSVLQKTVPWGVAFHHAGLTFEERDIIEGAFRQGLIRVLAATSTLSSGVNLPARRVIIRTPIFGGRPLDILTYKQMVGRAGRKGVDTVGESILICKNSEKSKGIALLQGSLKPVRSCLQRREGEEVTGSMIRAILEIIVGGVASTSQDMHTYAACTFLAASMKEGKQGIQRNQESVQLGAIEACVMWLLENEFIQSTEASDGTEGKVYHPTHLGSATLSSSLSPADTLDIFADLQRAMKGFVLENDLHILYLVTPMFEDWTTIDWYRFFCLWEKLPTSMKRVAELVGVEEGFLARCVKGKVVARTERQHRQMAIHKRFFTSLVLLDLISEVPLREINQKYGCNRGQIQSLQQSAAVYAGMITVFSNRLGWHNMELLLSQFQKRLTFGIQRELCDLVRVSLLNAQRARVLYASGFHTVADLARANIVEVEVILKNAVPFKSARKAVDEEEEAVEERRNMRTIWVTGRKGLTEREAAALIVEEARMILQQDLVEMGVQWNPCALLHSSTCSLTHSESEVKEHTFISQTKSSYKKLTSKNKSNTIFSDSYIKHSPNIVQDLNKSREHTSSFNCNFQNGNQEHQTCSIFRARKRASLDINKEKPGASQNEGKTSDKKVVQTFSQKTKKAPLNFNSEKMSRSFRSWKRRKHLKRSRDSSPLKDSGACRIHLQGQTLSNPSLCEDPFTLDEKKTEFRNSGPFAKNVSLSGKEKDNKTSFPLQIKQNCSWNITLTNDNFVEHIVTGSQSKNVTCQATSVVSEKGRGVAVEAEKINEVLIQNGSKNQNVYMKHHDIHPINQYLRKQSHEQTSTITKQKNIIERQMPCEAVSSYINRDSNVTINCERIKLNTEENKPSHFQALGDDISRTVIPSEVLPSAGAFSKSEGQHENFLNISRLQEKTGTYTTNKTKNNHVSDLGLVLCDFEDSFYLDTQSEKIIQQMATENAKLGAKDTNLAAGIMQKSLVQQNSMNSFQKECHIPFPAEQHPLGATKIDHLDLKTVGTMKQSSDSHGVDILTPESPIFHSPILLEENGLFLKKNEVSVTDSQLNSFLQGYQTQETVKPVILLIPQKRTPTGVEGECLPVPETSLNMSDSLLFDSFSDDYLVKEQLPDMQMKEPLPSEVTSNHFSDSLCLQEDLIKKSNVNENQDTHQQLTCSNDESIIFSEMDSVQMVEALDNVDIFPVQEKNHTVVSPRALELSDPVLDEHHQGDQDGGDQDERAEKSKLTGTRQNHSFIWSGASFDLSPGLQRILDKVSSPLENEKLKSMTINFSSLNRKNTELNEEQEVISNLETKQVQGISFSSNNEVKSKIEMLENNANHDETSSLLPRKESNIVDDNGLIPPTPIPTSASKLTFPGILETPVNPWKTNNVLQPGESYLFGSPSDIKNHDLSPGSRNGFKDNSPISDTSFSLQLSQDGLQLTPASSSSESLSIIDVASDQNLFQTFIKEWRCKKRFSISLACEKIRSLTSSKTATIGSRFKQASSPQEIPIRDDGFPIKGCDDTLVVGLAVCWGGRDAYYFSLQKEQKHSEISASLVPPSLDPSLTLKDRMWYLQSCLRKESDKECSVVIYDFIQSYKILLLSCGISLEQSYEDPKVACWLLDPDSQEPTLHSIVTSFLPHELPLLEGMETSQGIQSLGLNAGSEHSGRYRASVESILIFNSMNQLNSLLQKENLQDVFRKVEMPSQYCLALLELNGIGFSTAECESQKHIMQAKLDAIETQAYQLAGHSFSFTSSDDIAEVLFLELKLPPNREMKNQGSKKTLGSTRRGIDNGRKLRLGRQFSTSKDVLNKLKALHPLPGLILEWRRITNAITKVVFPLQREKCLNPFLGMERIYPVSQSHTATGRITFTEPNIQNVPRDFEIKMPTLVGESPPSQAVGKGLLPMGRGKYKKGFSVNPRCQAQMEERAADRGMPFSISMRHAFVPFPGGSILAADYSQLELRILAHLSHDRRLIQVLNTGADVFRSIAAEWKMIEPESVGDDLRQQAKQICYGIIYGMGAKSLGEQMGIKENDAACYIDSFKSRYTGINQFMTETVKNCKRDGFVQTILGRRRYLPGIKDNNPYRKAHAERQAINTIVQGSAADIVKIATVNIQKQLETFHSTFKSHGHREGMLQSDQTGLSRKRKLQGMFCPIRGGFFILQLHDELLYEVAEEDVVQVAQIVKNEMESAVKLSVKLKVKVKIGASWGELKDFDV
Effect on: enzyme activity
Action: inhibitor
Concentration: 77 µM
Reference: untreated
Measurement: remaining activity
O=c1cc(-c2ccccc2)oc2cc(O)cc(O)c12: 89.4% and 86.6%
Nc1ccc(S(=O)(=O)Nc2ccc(Cl)nn2)cc1: 97.7%
O=C1c2ccc(Nc3ccc(F)cc3F)cc2CCc2ccc(OC[C@H](O)CO)cc21: 103%
CC(=O)OCC(=O)NCCCOc1cccc(CN2CCCCC2)c1: 95.5% and 102%

A few entries again (sample 2):
Histamine H2 receptor (HRH2, Homo sapiens, UniProt P25021): 24.3%
Alpha-1D adrenergic receptor (ADRA1D, Homo sapiens, UniProt P25100): -11.7%
5-hydroxytryptamine receptor 3A (HTR3A, Homo sapiens, UniProt P46098): 14.7%
D(1A) dopamine receptor (DRD1, Homo sapiens, UniProt P21728): 4.66%
